Measured values gathered from unrelated publications.
Lines come from different studies, so protocols differ. ± marks the error that the study gave.
Technique: steady-state kinetics
B1: enzyme (Bacillus pumilus, UniProt A8FFI9); chain EARSIAWSVDEFFKNREGTFVIQEVKEKSPWVYNKKRAKERFAPQSTFKVANALIGLQTGAVRDEYDIKYWDGVKREIDNWNRDHTLGSGMRDSVVWYYQAMARDIGEERMNHWVKAIHYGNKDISGGIDQFWLSSTLRISPIEQVRFLKQLYEETLPFDLKNMRTVKRMMVQEEEKHATLYGKTGSGSDIGWYVGFIKHEHKTYILATNIKGTGIEAKDITYRILKKYHLMEASV
B2: enzyme Q449A (Limosilactobacillus reuteri, UniProt Q8GP32); chain SADTNIENNDSSTVQVTTGDNDIAVKSVTLGSGQVSAASDTTIRTSANANSASSAANTQNSNSQVASSAAITSSTSSAASSNNTDSKAAQENTNTAKNDDTQKAAPANESSEAKNEPAVNVNDSSAAKNDDQQSSKKNTTAKLNKDAENVVKKAGIDPNSLTDDQIKALNKMNFSKAAKSGTQMTYNDFQKIADTLIKQDGRYTVPFFKASEIKNMPAATTKDAQTNTIEPLDVWDSWPVQDVRTGQVANWNGYQLVIAMMGIPNQNDNHIYLLYNKYGDNELSHWKNVGPIFGYNSTAVSQEWSGSAVLNSDNSIQLFYTRVDTSDNNTNHQKIASATLYLTDNNGNVSLAQVANDHIVFEGDGYYYQTYDQWKATNKGADNIAMRDAHVIEDDNGDRYLVFEASTGLENYAGEDQIYNWLNYGGDDAFNIKSLFRILSNDDIKSRATWANAAIGILKLNKDEKNPKVAELYSPLISAPMVSDEIERPNVVKLGNKYYLFAATRLNRGSNDDAWMNANYAVGDNVAMVGYVADSLTGSYKPLNDSGVVLTASVPANWRTATYSYYAVPVAGKDDQVLVTSYMTNRNGVAGKGMDSTWAPSFLLQINPDNTTTVLAKMTNQGDWIWDDSSENLDMIGDLDSAALPGERDKPVDWDLIGYGLKP
B3: GlcAK1 (Arabidopsis thaliana, UniProt A0A1I9LRK4); chain KRVREEKMDPNSTVSGDGQATAAIEHRSFARIGFLGNPSDVYFGRTISLTIGNFWASVKLEPSEHLVIKPHPFHDLVQFTSLDHLLNRLQNEGYYGGVRLLMAICKVFRNYCKENDIQLHQANFSLSYDTNIPRQTGLSGSSAIVSAALNCLLDFYNVRHLIKVQVRPNIVLSAEKELGIVAGLQDRVAQVYGGLVHMDFSKEHMDKLGHGIYTPMDISLLPPLHLIYAENPSDSGKVHSMVRQRWLDGDEFIISSMKEVGSLAEEGRTALLNKDHSKLVELMNLNFDIRRRMFGDECLGAMNIEMVEVARRVGAASKFTGSGGAVVVFCPEGPSQVKLLEEECRKAGFTLQPVKIAPSCLNDSDIQTL
B4: nitrilase Y142F (Rhodococcus rhodochrous, UniProt A4LA85); chain MVEYTNTFKVAAVQAQPVWFDAAKTVDKTVSIIAEAARNGCELVAFPEVFIPGYPYHIWVDSPLAGMAKFAVRYHENSLTMDSPHVQRLLDAARDHNIAVVVGISERDGGSLYMTQLIIDADGQLVARRRKLKPTHVERSVFGEGNGSDISVYDMPFARLGALNCWEHFQTLTKYAMYSMHEQVHVASWPGMSLYQPEVPAFGVDAQLTATRMYALEGQTFVVCTTQVVTPEAHEFFCENEEQRKLIGRGGGFARIIGPDGRDLATPLAEDEEGILYADIDLSAITLAKQAADPVGHYSRPDVLSLNFNQRRTTPVNTPLSTIHATHTFVPQFGALDGVRELNGADEQRALPSTHSDETDRATASI
B5: nitrilase Y142A (Rhodococcus rhodochrous, UniProt A4LA85); chain MVEYTNTFKVAAVQAQPVWFDAAKTVDKTVSIIAEAARNGCELVAFPEVFIPGYPYHIWVDSPLAGMAKFAVRYHENSLTMDSPHVQRLLDAARDHNIAVVVGISERDGGSLYMTQLIIDADGQLVARRRKLKPTHVERSVAGEGNGSDISVYDMPFARLGALNCWEHFQTLTKYAMYSMHEQVHVASWPGMSLYQPEVPAFGVDAQLTATRMYALEGQTFVVCTTQVVTPEAHEFFCENEEQRKLIGRGGGFARIIGPDGRDLATPLAEDEEGILYADIDLSAITLAKQAADPVGHYSRPDVLSLNFNQRRTTPVNTPLSTIHATHTFVPQFGALDGVRELNGADEQRALPSTHSDETDRATASI
B6: enzyme D418A (Limosilactobacillus reuteri, UniProt Q8GP32); chain SADTNIENNDSSTVQVTTGDNDIAVKSVTLGSGQVSAASDTTIRTSANANSASSAANTQNSNSQVASSAAITSSTSSAASSNNTDSKAAQENTNTAKNDDTQKAAPANESSEAKNEPAVNVNDSSAAKNDDQQSSKKNTTAKLNKDAENVVKKAGIDPNSLTDDQIKALNKMNFSKAAKSGTQMTYNDFQKIADTLIKQDGRYTVPFFKASEIKNMPAATTKDAQTNTIEPLDVWDSWPVQDVRTGQVANWNGYQLVIAMMGIPNQNDNHIYLLYNKYGDNELSHWKNVGPIFGYNSTAVSQEWSGSAVLNSDNSIQLFYTRVDTSDNNTNHQKIASATLYLTDNNGNVSLAQVANDHIVFEGDGYYYQTYDQWKATNKGAANIAMRDAHVIEDDNGDRYLVFEASTGLENYQGEDQIYNWLNYGGDDAFNIKSLFRILSNDDIKSRATWANAAIGILKLNKDEKNPKVAELYSPLISAPMVSDEIERPNVVKLGNKYYLFAATRLNRGSNDDAWMNANYAVGDNVAMVGYVADSLTGSYKPLNDSGVVLTASVPANWRTATYSYYAVPVAGKDDQVLVTSYMTNRNGVAGKGMDSTWAPSFLLQINPDNTTTVLAKMTNQGDWIWDDSSENLDMIGDLDSAALPGERDKPVDWDLIGYGLKP
Chain of UniProt J7SZ64 (whole entry, looked up): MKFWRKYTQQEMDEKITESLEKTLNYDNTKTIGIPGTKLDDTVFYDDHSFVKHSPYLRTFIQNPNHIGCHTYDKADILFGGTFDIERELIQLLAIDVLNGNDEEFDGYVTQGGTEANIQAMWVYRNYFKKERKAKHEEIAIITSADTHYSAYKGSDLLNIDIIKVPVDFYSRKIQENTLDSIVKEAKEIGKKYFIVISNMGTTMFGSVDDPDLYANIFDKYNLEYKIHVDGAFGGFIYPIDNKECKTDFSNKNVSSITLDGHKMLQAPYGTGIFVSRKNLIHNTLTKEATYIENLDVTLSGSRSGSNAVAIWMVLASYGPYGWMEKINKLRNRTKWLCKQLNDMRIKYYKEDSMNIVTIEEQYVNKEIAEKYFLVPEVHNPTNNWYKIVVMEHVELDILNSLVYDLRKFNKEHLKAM
Chain of UniProt Q8ZMX2 (whole entry, looked up): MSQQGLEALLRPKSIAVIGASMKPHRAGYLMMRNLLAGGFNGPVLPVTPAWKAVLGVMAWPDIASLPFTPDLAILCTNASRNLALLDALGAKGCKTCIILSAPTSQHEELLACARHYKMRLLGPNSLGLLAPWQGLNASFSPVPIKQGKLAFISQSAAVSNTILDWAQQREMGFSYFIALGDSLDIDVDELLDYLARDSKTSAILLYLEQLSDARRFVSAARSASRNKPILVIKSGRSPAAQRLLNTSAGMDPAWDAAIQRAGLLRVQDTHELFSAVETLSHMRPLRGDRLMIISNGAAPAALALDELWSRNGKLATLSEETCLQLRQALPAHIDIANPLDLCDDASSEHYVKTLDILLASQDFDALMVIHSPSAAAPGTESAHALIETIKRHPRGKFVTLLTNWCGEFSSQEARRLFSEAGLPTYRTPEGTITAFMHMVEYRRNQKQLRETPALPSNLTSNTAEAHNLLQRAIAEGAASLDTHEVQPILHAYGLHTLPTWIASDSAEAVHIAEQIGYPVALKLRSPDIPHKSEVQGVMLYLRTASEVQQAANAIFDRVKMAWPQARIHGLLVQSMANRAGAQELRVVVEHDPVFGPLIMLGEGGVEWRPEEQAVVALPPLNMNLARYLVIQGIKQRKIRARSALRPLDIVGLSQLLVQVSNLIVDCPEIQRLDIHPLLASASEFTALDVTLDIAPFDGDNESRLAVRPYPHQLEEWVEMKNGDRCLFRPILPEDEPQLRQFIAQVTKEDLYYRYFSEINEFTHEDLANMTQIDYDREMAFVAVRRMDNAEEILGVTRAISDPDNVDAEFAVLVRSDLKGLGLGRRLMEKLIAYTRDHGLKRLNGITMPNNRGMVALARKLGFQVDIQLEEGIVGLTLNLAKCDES
Chain of UniProt O04161 (whole entry, looked up): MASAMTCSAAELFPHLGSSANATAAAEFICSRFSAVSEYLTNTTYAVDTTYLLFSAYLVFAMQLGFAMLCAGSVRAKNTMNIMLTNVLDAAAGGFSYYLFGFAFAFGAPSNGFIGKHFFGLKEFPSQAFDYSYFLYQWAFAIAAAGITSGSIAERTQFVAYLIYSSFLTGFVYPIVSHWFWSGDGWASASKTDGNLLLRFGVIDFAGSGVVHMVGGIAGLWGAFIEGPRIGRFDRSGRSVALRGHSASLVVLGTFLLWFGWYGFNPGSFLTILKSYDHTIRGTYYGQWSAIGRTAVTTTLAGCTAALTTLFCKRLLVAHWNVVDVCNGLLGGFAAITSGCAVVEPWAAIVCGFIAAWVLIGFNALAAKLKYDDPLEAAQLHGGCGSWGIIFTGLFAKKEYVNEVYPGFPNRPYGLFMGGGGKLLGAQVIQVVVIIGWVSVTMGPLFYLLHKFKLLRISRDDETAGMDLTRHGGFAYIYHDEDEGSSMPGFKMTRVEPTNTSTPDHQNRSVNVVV

pat (Salmonella enterica, UniProt Q8ZMX2) — K0.5 (CC(=O)SCCNC(=O)CCNC(=O)[C@H](O)C(C)(C)COP(=O)(O)OP(=O)(O)OC[C@H]1O[C@@H](n2cnc3c(N)ncnc32)[C@H](O)[C@@H]1OP(=O)(O)O; pH 7.5, 37 °C, apparent, sigmoidal fit, with: AcsC 400 µM): 10.3 µM
B1 (enzyme) — kcat ([H][C@]12SCC(COC(C)=O)=C(C(=O)O)N1C(=O)[C@H]2NC(=O)CCC[C@@H](N)C(=O)O; pH 7): 0.093 ± 0.003 s⁻¹
B2 (enzyme Q449A) — K0.5 (OC[C@H]1O[C@@](CO)(O[C@H]2O[C@H](CO)[C@@H](O)[C@H](O)[C@H]2O)[C@@H](O)[C@@H]1O; pH 5.5, 50 °C, apparent): 20000 µM
enzyme (Solanum lycopersicum, UniProt O04161) — K0.5 (CN; not purified): 5600 µM
B3 (GlcAK1) — K0.5 (Nc1ncnc2c1ncn2[C@@H]1O[C@H](COP(=O)(O)OP(=O)(O)OP(=O)(O)O)[C@@H](O)[C@H]1O; pH 7.5, 25 mM KCl, Hill fit, with: 1 mM GlcA; 10 mM MgCl2): 555 µM
B4 (nitrilase Y142F) — Km (N#CCCCC#N; pH 7.5, 25 °C): 1560 µM
aromatic amino acid decarboxylase (Clostridium sporogenes, UniProt J7SZ64) — Vmax (N[C@@H](Cc1c[nH]c2c(Cl)cccc12)C(=O)O; pH 7, 37 °C, not purified, with: PLP 40 µM): 0.6 µmol/min/mg
B5 (nitrilase Y142A) — Km (N#Cc1ccccn1; pH 7.5, 25 °C): 819 µM
B6 (enzyme D418A) — Km (OC[C@H]1O[C@@](CO)(O[C@H]2O[C@H](CO)[C@@H](O)[C@H](O)[C@H]2O)[C@@H](O)[C@@H]1O; pH 5.5, 50 °C, apparent): 78000 µM

For quick reference, copied from above:
pat (Salmonella enterica, UniProt Q8ZMX2) — K0.5 (CC(=O)SCCNC(=O)CCNC(=O)[C@H](O)C(C)(C)COP(=O)(O)OP(=O)(O)OC[C@H]1O[C@@H](n2cnc3c(N)ncnc32)[C@H](O)[C@@H]1OP(=O)(O)O; pH 7.5, 37 °C, apparent, sigmoidal fit, with: AcsC 400 µM): 10.3 µM
